Measurements of several laboratories.
Lines come from different studies, so protocols differ. “And” joins repeats or separate records; there may be more than shown. ± gives the spread as reported.
Oprd1: Delta-type opioid receptor (Oprd1, Rattus norvegicus, UniProt P33533)
UniProt A5GZW8, sequence (whole entry, looked up): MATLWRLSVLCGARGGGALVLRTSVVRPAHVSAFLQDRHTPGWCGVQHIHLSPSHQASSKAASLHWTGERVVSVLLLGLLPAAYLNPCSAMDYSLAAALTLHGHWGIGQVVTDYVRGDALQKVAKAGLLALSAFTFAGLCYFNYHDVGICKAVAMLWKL
UniProt Q8BLF1, sequence (whole entry, looked up): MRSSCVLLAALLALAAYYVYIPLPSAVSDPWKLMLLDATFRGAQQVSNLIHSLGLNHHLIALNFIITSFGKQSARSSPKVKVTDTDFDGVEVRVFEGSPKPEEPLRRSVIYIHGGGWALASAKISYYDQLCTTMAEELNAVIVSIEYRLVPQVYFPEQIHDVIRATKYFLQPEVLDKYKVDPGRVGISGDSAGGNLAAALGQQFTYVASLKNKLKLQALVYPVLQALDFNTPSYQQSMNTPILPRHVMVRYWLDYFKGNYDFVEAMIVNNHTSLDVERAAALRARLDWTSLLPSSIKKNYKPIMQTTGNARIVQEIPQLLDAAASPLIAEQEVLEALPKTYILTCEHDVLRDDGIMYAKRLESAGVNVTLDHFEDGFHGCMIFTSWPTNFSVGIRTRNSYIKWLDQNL
UniProt Q007T0, sequence (whole entry, looked up): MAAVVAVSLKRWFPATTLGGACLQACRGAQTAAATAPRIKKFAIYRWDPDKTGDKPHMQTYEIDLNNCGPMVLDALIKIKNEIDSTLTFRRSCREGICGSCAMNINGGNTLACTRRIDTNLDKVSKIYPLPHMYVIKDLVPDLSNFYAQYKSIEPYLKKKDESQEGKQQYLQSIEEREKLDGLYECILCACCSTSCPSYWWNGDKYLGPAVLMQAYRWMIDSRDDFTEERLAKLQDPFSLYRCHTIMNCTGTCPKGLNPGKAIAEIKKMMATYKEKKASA
UniProt Q00987, sequence (whole entry, looked up): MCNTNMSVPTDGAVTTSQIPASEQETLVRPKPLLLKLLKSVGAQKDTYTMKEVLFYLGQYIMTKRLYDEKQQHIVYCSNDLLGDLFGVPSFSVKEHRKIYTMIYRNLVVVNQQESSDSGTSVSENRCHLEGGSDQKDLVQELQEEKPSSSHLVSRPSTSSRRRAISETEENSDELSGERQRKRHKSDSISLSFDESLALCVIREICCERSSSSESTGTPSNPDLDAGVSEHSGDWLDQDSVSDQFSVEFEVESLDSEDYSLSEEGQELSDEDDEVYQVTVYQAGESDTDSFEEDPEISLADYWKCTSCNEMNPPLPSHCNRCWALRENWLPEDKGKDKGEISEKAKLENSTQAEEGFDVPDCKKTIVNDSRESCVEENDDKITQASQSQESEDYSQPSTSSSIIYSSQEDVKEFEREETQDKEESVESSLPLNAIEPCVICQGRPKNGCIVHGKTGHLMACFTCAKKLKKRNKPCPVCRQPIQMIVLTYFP
UniProt D0VWV4, sequence (whole entry, looked up): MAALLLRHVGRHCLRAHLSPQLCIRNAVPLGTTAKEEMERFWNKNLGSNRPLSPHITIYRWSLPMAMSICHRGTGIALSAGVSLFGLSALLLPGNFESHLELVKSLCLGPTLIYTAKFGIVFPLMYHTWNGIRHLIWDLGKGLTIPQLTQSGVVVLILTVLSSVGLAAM
UniProt P33533, sequence (whole entry, looked up): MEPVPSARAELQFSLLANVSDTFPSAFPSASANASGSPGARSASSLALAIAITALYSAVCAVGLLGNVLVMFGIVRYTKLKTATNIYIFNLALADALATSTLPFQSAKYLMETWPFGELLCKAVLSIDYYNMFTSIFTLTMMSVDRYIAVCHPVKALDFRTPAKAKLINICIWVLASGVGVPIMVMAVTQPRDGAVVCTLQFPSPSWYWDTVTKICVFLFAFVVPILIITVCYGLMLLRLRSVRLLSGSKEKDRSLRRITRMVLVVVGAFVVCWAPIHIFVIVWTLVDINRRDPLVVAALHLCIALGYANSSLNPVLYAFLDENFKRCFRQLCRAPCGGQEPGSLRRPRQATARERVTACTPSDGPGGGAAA
UniProt Q9UH17, sequence (whole entry, looked up): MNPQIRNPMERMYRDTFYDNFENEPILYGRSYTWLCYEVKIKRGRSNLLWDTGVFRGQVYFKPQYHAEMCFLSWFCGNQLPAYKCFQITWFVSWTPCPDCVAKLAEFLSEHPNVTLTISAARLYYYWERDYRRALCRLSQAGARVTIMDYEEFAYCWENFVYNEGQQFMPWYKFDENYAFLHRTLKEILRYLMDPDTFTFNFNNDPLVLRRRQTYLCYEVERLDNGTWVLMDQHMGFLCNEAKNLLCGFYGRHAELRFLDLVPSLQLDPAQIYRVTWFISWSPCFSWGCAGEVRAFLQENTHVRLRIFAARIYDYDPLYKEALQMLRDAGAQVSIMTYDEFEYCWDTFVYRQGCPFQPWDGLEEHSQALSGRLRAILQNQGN
UniProt Q9UM07, sequence (whole entry, looked up): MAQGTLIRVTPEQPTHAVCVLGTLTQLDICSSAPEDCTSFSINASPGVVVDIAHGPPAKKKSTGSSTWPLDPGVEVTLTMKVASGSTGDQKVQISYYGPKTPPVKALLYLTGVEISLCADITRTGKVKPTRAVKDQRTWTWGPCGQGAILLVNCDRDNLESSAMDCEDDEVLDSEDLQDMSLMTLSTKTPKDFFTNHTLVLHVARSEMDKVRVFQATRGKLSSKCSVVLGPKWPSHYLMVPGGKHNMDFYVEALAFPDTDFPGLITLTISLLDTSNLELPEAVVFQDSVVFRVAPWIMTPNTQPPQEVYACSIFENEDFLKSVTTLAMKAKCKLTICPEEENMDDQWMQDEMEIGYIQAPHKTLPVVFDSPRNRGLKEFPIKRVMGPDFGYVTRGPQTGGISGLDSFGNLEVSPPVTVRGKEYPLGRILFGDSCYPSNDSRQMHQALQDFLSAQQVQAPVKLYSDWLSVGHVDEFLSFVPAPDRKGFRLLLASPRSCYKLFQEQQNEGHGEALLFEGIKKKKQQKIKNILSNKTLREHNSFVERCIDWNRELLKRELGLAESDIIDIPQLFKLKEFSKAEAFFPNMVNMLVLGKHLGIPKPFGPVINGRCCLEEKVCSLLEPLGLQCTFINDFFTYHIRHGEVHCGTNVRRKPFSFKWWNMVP
UniProt Q15418, sequence (whole entry, looked up): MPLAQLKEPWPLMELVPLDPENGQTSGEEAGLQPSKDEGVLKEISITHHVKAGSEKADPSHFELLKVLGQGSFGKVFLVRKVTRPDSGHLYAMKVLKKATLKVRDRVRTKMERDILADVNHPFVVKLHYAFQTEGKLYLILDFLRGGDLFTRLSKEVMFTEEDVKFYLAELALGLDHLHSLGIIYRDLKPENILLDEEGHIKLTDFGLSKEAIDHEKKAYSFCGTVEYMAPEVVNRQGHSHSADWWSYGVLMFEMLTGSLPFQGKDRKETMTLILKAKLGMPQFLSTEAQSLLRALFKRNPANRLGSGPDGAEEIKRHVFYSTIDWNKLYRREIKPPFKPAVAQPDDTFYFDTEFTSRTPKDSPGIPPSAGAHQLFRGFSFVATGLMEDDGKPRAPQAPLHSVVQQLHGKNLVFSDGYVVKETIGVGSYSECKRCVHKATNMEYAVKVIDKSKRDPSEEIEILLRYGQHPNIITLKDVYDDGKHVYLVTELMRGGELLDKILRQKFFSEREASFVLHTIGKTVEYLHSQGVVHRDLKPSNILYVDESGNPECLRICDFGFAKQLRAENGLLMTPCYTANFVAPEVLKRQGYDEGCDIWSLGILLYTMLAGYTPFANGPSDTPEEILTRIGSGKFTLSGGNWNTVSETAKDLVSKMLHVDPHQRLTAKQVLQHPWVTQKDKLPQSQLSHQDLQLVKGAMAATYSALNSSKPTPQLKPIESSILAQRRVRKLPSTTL
UniProt P08908, sequence (whole entry, looked up): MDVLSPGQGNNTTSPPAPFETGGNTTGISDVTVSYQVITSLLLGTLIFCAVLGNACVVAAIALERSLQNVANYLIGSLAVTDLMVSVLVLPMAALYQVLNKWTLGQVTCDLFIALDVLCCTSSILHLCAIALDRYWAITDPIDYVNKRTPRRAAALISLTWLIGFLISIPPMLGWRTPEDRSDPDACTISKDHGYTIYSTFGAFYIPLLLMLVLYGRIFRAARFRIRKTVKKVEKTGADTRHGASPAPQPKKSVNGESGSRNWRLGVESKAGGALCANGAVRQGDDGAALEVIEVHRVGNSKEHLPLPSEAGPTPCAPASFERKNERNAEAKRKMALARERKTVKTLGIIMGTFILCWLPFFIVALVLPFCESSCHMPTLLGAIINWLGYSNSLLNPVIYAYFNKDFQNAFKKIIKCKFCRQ
UniProt P46734, sequence (whole entry, looked up): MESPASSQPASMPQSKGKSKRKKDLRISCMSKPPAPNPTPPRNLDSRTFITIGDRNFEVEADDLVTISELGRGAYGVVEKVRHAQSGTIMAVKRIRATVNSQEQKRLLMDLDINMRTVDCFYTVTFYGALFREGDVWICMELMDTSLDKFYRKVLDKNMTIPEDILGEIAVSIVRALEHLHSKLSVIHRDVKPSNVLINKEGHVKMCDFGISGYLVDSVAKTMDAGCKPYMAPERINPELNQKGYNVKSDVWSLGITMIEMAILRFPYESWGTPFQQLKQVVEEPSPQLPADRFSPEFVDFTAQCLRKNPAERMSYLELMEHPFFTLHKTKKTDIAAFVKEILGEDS
UniProt P07237, sequence (whole entry, looked up): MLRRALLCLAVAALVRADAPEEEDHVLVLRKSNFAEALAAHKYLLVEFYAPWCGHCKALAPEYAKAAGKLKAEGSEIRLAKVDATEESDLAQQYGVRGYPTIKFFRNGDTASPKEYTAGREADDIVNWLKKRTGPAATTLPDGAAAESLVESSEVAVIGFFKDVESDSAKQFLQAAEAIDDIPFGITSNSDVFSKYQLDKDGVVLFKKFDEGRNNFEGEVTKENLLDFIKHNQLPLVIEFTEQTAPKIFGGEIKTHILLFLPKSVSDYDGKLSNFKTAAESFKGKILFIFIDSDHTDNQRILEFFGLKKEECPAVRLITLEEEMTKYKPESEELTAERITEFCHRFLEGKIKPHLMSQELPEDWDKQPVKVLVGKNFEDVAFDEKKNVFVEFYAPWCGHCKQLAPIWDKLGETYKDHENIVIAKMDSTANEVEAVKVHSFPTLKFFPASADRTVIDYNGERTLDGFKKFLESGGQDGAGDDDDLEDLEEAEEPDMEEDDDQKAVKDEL

SMILES	target	assay	test system	setting	how to read	endpoint	result
Cc1ncsc1-c1ccc([C@H](C)NC(=O)[C@@H]2C[C@@H](O)CN2C(=O)[C@@H](NC(=O)CN2CCC(CN3CCN(CCC(=O)N4CCN(c5ncc(-c6cc(NC(=O)c7ccc(F)cc7C(F)(F)F)c(N7C[C@@H](C)N(C)[C@@H](C)C7)cc6F)cn5)CC4)CC3)CC2)C(C)(C)C)cc1	WD repeat protein WDS (Spodoptera frugiperda, UniProt A0A2H1VC02)	degrader, targeted LC-MS	Sf9	concentration not given		protein level	38.7% and 34.5% and 41% and 38.8%
CN(C)[C@H]1C[C@@]23CC[C@@]4(O2)C(=CC[C@]2(C)[C@@H](c5ccc6ccncc6c5)CC[C@H]24)C=C3[C@@H](O)[C@@H]1O	MELK (Homo sapiens, UniProt Q14680)	ATP probe labelling, inhibitor, KiNativ profiling		0.1 µM		inhibition	-4.4%
C=C(c1ccccc1)[C@@H](N)P(=O)(O)O	Phenylalanine/tyrosine ammonia-lyase (PAL, Rhodotorula toruloides, UniProt P11544)	inhibitor		50 µM, together with: L-Phe 5 mM		reaction rate reduction	10%
CON(C(=O)c1cn(C)nc1C(F)F)C(C)Cc1c(Cl)cc(Cl)cc1Cl (stereo not drawn)	SDHD/SDHC/SDHB (Sus scrofa, UniProt A5GZW8+D0VWV4+Q007T0)	enzyme activity, inhibitor, DCIP reduction	pig	0.1 µM, together with: DCIP 20 µM		reaction velocity	0.00727 µM/s and 0.00734 µM/s and 0.00645 µM/s
CN(C)CCCSC(=S)N1CCN(C(=O)/C=C/c2coc3ccccc3c2=O)CC1	Nucleoprotein (N, Tomato spotted wilt virus, UniProt P25999, R94A)	binding, microscale thermophoresis		0.061 µM	dose series	MST response	842 a.u.
O=C(N[C@@H]1c2ccccc2C[C@H]1N1CCCC1)c1ccc(-c2ccnc3[nH]ccc23)nc1	MAP2K3 (Homo sapiens, UniProt P46734)	binding, competition with immobilised ligand		3 µM		remaining binding	12%
CC[C@H](C)[C@H](NC(C)=O)C(=O)N[C@@H](CCC(=O)O)C(=O)N1CCC[C@H]1C(=O)NC(CS(=O)(=O)O)P(=O)(Oc1ccccc1)Oc1ccccc1 (stereo partly drawn)	Granzyme B (GZMB, Homo sapiens, UniProt P10144)	enzyme activity, inhibitor, FRET				kinact	0.000783 s⁻¹
C#Cc1cc(/C=N/NC(=O)CCl)c2nccn2c1	RPS6KA1 (Homo sapiens, UniProt Q15418)	cysteine labelling, gel-based live-cell labelling	HEK-293T	strong ligand-dependent labelling		labelling concentration	0.1 to 0.5 µM
CCCCC/C=C\C/C=C\C/C=C\C/C=C\CCCC(=O)NCCc1ccc(O)c(O)c1	Trpv1 (Mus musculus, UniProt Q704Y3)	ion current, agonist, whole-cell patch clamp	HEK293			Hill coefficient	1.49 ± 0.29
C/C(=N\OCCCN1CCCCC1)c1ccc(C(F)(F)F)cc1	HTR1A (Homo sapiens, UniProt P08908)	agonist, cAMP		10 µM		activation	4.54%
N[C@H](C(=O)N1CCCC1)C1CCN(c2nccc3c(-c4ncc(Cl)cc4Cl)cccc23)CC1	PADI4 (Homo sapiens, UniProt Q9UM07)	enzyme activity		0.0983 µM, low-affinity site, together with: Ca2+ 0.25 mM		kcat	0.224 s⁻¹ and 0.193 s⁻¹
CCC(C)C1CN(C(CC2CCCCC2)CN2CCCC2CN2CCNCC2CO)CCN1CCCC1CCCC1 (stereo not drawn)	Oprd1	radioligand binding	rat brain membranes	500 nM, pH 7.5, 25 °C, together with: 2 nM [3H]DPDPE		remaining binding	88.7%
CC(C)[C@H]1NC(=O)C[C@H]2/C=C/CCSSC[C@@H](NC1=O)C(=O)N[C@H](Cc1cccc3ccccc13)C(=O)NCC(=O)O2	CAMK2A (Homo sapiens, UniProt Q9UQM7)	enzyme activity, inhibitor		10 µM		inhibition	-1%
CCOC(=O)[C@@H]1Cc2c(cc([N+](=O)[O-])cc2[N+](=O)[O-])[C@H](O)[C@]12C(=O)Nc1ccc(Br)cc12	Aurora kinase A (AURKA, Homo sapiens, UniProt O14965)	binding, competition with immobilised ligand		0.1 µM		remaining binding	57%
CN(C)c1ncnc2c1ncn2[C@@H]1O[C@H](CO)[C@@H](NC(=O)[C@@H](N)CSC(c2ccccc2)c2ccccc2)[C@H]1O	Puromycin-sensitive aminopeptidase (Homo sapiens, UniProt P55786)	enzyme activity, fluorescence		together with: Ala-4-MNA substrate	relative to: APN IC50 over PSA IC50	selectivity ratio	57 fold
CC(C)CC(O)(CC(C)C)c1cn(C(=O)N2CCCC2)nn1	Neutral cholesterol ester hydrolase 1 (Mus musculus, UniProt Q8BLF1)	probe labelling, inhibitor, competitive ABPP-SILAC, measured: Aadacl1	mouse T cells	concentration not given, 4 h, single peptide	relative to: treated over DMSO cells, lower = stronger inhibition	SILAC activity ratio	1.18 and 1.29 and 1.13 and 1.16 and 1.26 and 1.24
CS(C)(=O)=Nc1ccc(-c2ccc(-c3nc4cc(O[C@@H]5CO[C@H]6[C@@H]5OC[C@H]6O)[nH]c4cc3F)cc2)cc1	FER (Homo sapiens, UniProt P16591)	enzyme activity, inhibitor		10 µM		inhibition	-16%
N[C@H](Cc1ccccc1)P(=O)(O)O	PAL1 (Petroselinum crispum, UniProt P24481, Y110F)	binding, ITC				-TΔS	0.418 kJ/mol
O=C(CF)N[C@H]1[C@H]([C@H](O)[C@H](O)CNC(=O)c2ccc(Oc3ccccc3)cc2)O[C@@](OCc2cccc(Cl)c2Cl)(C(=O)O)C[C@@H]1O	CD22 (Homo sapiens, UniProt P20273)	isothermal titration calorimetry				ΔH	-53.6 ± 3.68 kJ/mol
C[C@]12C(c3cccnc3)=C[C@H]3[C@@H](CCC4=C[C@H](O)CC[C@@]43C)[C@@H]1CC[C@@H]2O	7-alpha-hydroxycholest-4-en-3-one 12-alpha-hydroxylase (Homo sapiens, UniProt Q9UNU6, W281F)	inhibitor		80 µM, together with: 7α-hydroxycholest-4-en-3-one 0.54 µM		remaining activity	13 ± 2.78%
C#CCCCCOc1ccc2c(c1)CCCN2C(=O)CCl	Thioredoxin domain-containing protein 12 (TXNDC12, Homo sapiens, UniProt O95881)	mass spectrometry profiling	Ramos cell lysate	100 µM over 10 µM, UniProt O95881	relative to: high over low concentration	reactivity ratio	1.02
C=CC(=O)Nc1cc(-c2ccc(C(=O)N3CCCC(O)(CC)C3)cc2)ccc1F (stereo not drawn)	DNA dC->dU-editing enzyme APOBEC-3B, C-terminal domain (Homo sapiens, UniProt Q9UH17)	covalent adduct, intact protein MS		3 h, 20-fold excess, 500 µM		unmodified protein	22% and 27%
CC[C@@H](C)[C@@H]1CN([C@@H](CC2CCCCC2)CN2CCC[C@H]2CN2CCNC[C@@H]2Cc2ccc3ccccc3c2)CCN1CCc1ccc(Cl)c(Cl)c1	Oprd1	radioligand binding	rat brain membranes	500 nM, pH 7.5, 25 °C, together with: 2 nM [3H]DPDPE		remaining binding	91%
O=C1NC(=O)c2c1c1cc(F)c[n+]3c1c1c2c2cc(O)ccc2[n]1[Ru-4]312([N]=C=S)[S+]3CC[S+]1CC[S+]2CC3 (stereo not drawn)	STK33 (Homo sapiens, UniProt Q9BYT3)	enzyme activity		100 nM, human enzyme, together with: 10 µM ATP	relative to: untreated	remaining activity	67%
O=C(Nc1ccc([As](O)O)cc1)c1cc(C(=O)Nc2ccc([As](O)O)cc2)cc(C(=O)Nc2ccc([As](O)O)cc2)c1	Protein disulfide-isomerase, reduced (P4HB, Homo sapiens, UniProt P07237)	absorbance titration		concentration not given, 1 µM protein		binding stoichiometry	0.89 ± 0.08
CCCC[C@H]1CNCCN1C[C@@H]1CCCN1C[C@@H](Cc1ccc2ccccc2c1)N1CCN(CCC23CC4CC(CC(C4)C2)C3)[C@H](Cc2ccc(O)cc2)C1	Oprd1	radioligand binding	rat brain membranes	500 nM, pH 7.5, 25 °C, together with: 2 nM [3H]DPDPE		remaining binding	90.6%
CC[C@H](C)[C@@H]1NC(=O)[C@H](CC(C)C)NC(=O)CNC(=O)[C@H](CCCNC(=N)N)NC(=O)[C@H](Cc2c[nH]c3ccccc23)NC(=O)[C@H](CCSC)NC(=O)[C@H](CO)NC(=O)[C@H](CCC(=O)O)NC(=O)[C@H](Cc2ccccc2)NC(=O)[C@H](CC(=O)O)NC(=O)[C@H]([C@@H](C)O)NC(=O)CNC(=O)[C@H](CCC(=O)O)NC(=O)[C@H]([C@@H](C)O)NC(=O)CNC(=O)[C@H](CC(=O)O)NC1=O	MDM2 (Homo sapiens, UniProt Q00987)	MDM2-ligand binding, inhibitor, AlphaLISA competition		50 µM, together with: GST-tagged MDM2 ligand	lower = stronger inhibition	AlphaLISA signal	1180 a.u. and 1060 a.u. and 1140 a.u.

For quick reference, copied from above:
SMILES	target	assay	test system	setting	how to read	endpoint	result
CN(C)CCCSC(=S)N1CCN(C(=O)/C=C/c2coc3ccccc3c2=O)CC1	Nucleoprotein (N, Tomato spotted wilt virus, UniProt P25999, R94A)	binding, microscale thermophoresis		0.061 µM	dose series	MST response	842 a.u.
O=C(N[C@@H]1c2ccccc2C[C@H]1N1CCCC1)c1ccc(-c2ccnc3[nH]ccc23)nc1	MAP2K3 (Homo sapiens, UniProt P46734)	binding, competition with immobilised ligand		3 µM		remaining binding	12%
CC[C@H](C)[C@H](NC(C)=O)C(=O)N[C@@H](CCC(=O)O)C(=O)N1CCC[C@H]1C(=O)NC(CS(=O)(=O)O)P(=O)(Oc1ccccc1)Oc1ccccc1 (stereo partly drawn)	Granzyme B (GZMB, Homo sapiens, UniProt P10144)	enzyme activity, inhibitor, FRET				kinact	0.000783 s⁻¹
